Results of several laboratories.
Protocols differ between the studies behind these lines. “And” joins repeats or separate records; there may be more than shown. ± gives the spread as reported.

| Compound | cell line | assay | system | setting | scale | measurement | result |
| --- | --- | --- | --- | --- | --- | --- | --- |
| Nc1ncc(-c2nc(N3CCOCC3)nc(N3CCOCC3)n2)c(C(F)F)n1 | AN3-CA | cell growth |  | 72 h |  | GI50 | 0.042 µM |
| Oc1cc(Cl)ccc1Oc1ccc(Cl)cc1Cl | HepG2 | extracellular flux, item: reserve respiratory capacity |  | 24 h, distribution mode 2 |  | point of departure | 1.23 µM |
| COc1c(CCC[P+](c2ccccc2)(c2ccccc2)c2ccccc2)cc2c(c1OC)OCO2.[I-] | HOP-92 | SRB |  |  |  | TGI | -5.31 log M |
| Oc1ccc(C2(c3ccc(O)cc3)c3ccccc3-c3ccccc32)cc1 | HepG2 spheroids | cell proliferation, flow cytometry, item: Ki67 |  | 10 µM, 24 h | reference: solvent control | inhibition | 12.1% |
| CN1C(=O)[C@@]23C[C@]4([C@]56C[C@@]78SS[C@@](CO)(C(=O)N7[C@H]5Nc5ccccc56)N(C)C8=O)c5ccccc5N[C@@H]4N2C(=O)[C@]1(CO)SS3 | OCI-Ly1 |  |  | 1 µM, 120 h |  | viability | 0.477% |
| O=C1CCP(=S)(c2ccccc2)CC1 | HCT-116 | ELISA |  | IC50, 72 h |  | IL-6 level | 0.5 ± 0.28 pg/mL |
| Nc1ncnc2c1ncn2[C@@H]1O[C@@H]2COP(=O)(O)O[C@H]3[C@@H](O)[C@H](n4cnc5c(=O)[nH]cnc54)O[C@@H]3COP(=O)(O)O[C@H]2[C@H]1O | HFF-1 | RNA sequencing, item: Adherens junctions interactions |  | downregulated pathway | reference: Zika virus alone | pathway fold enrichment | 11.1 |
| Nc1nc2nc[nH]c2c(=S)[nH]1 | HCT-116 3-6 | clonogenic |  | 0.3125 µM, 10 days |  | surviving fraction | 1.03 |
| COc1c(C)c2c(c(O)c1C/C=C(\C)CCC(=O)O)C(=O)OC2 | A-375 | cell proliferation | skin cancer |  |  | IC50 | 0.933 µM |
| C/C1=C/C(=O)O[C@@H]2C[C@@H](CC[C@H](C)/C=C\C=C\CC1)O[C@@](O)([C@@H]1CSC(=O)N1Cc1ccccc1)C2 | MDA-MB-231 | cell invasion |  | 0.5 µM | reference: compound over latrunculin A | relative activity | 3.1 fold |
| C[C@]12CC[C@H](O)C[C@H]1CC[C@@H]1[C@@H]2CC[C@]2(C)[C@@H](c3ccc(=O)oc3)CC[C@]12O | MCF7 | RT-qPCR, item: AGR2 |  | 20 nM, 48 h, without estradiol, unit not given | reference: untreated | mRNA level | 0.631 and 0.822 and 0.536 |
| O=[N+]([O-])c1ccc(Cl)cc1 | human cells | reporter gene, agonist, luciferase reporter |  |  | reference: positive control | Emax | 31.7% |
| CN(C)NC(=O)CCC(=O)O | OCI-Ly1 |  |  | 0.1 µM, 120 h |  | viability | 129% |
| CN1CCN(C2(CNC3CCN(c4cccc(-c5cc6cc(F)ccc6[nH]5)c4)CC3)CCC2)CC1 | EKVX |  |  |  |  | CC50 | 6.06 µM |
| CCN(CC)c1ccc(C=NNC(=O)CSc2nc3ccccc3c(=O)n2Cc2ccc(S(N)(=O)=O)cc2)c(O)c1 | UACC-257 | NCI five-dose screen |  |  |  | CC50 | > 100 µM |
| Cc1nn(-c2nc3ccc(Cl)c(Cl)c3[nH]2)c(O)c1C1OC(=O)c2ccccc21 (centres unmarked) | RAW-ISG | CCK-8 |  | 30 µM |  | viability | 92.5% and 102% and 103% and 104% |
| C/C=C(/C)C(=O)O[C@H]1C(C)=C2[C@H]([C@@H]1OC(=O)CCCCCCC)[C@@](C)(OC(C)=O)C[C@H](OC(=O)CCC)[C@@]1(O)[C@H]2OC(=O)[C@@]1(C)O | HEK-293T | RNA-seq GSEA, item: Hallmark pancreas beta cells |  | 500 nM, 6 h | direction not given | normalized enrichment score | 1.43 |
| Cc1cc(C(C)(C)c2ccc(O)c(C)c2)ccc1O | HepG2 spheroids | Hoechst flow cytometry |  | 0.01 µM, 96 h |  | G1 phase cells | 68.5 ± 15.7% |
| COc1ccc([C@H]2c3[nH]c4ccc(Cl)cc4c3CCN2C(=O)Oc2ccc(Cl)cc2)cc1 | human dermal fibroblasts with PBMC | cytokine secretion, item: sVEGF |  | 0.1 µM, 48 h |  | inhibition | 60% |
| COc1cc(CCC[P+](c2ccccc2)(c2ccccc2)c2ccccc2)c(OC)c2c1OCO2.[I-] | UACC-257 | SRB |  |  |  | LC50 | > -4 log M |
| COc1ccc(C(=O)Nc2ccc3c(c2)C=CCP(=O)(O)O3)cc1 | A-375 | cell proliferation, MTT |  | 100 µM, 72 h, normoxia |  | maximal inhibition | ~10% |
| O=C1N(Cc2ccccc2Cl)c2ccccc2C12NN=C(c1ccccc1)S2 (centres unmarked) | MDA-MB-468 | gene expression array, item: MT1X mRNA |  | 10 µM, 12 h | reference: untreated, down | fold change | 3.04 |
| CCOC(=O)C1=C(N)N(c2ccc(C(=O)OCC)cc2)C(O)=C(C#N)C12C(=O)Nc1ccccc12 (centres unmarked) | Caco-2 | qRT-PCR, item: Bax |  | IC50 | reference: untreated | mRNA fold change | 4.19 |
| CC(C)N1CCC(NC2CCN(c3cccc(-c4cc5cc(F)ccc5[nH]4)c3)CC2)CC1 | OVCAR-3 |  |  |  |  | CC50 | 6.03 µM |
| Cn1cncc1C1=CN(c2ncnc3[nH]cnc23)CCS1 | SK-MEL-5 |  |  | melanoma cell line |  | CC50 | 112 µM |
| Ic1cccc2cnccc12 | mouse DRG neurons, wild type |  |  | 30 µM, 2 h, readout at 48 h, added: rotenone 25 µM, 3 h pulse |  | neuronal cell death | ≤ 22% |
| COc1cc(C(=O)c2c[nH]c3cc(-c4cccc(O)c4)ccc23)cc(OC)c1OC | MDA-MB-231 | scratch wound healing |  | 50 to 200 nM |  | cell migration | inhibited |
| COc1ccc2c(c1)[nH]c1c(C)nccc12 | DU-145 | bisulfite pyrosequencing, item: RASSF1A promoter CpG site 24 |  | 10 µM, 16 h |  | DNA methylation | 100% |
| Cn1nccc1Nc1nccc(-c2ccn([C@H](CO)c3ccc(Cl)c(F)c3)c(=O)c2)n1 | HCT116 | IncuCyte |  | concentration not given, 20 (unit not given) |  | PI-positive cells | 3.67 count and 5.33 count and 4.58 count |

Excerpt of the above:
| Compound | cell line | assay | system | setting | scale | measurement | result |
| --- | --- | --- | --- | --- | --- | --- | --- |
| COc1ccc(C(=O)Nc2ccc3c(c2)C=CCP(=O)(O)O3)cc1 | A-375 | cell proliferation, MTT |  | 100 µM, 72 h, normoxia |  | maximal inhibition | ~10% |
| CN1C(=O)[C@@]23C[C@]4([C@]56C[C@@]78SS[C@@](CO)(C(=O)N7[C@H]5Nc5ccccc56)N(C)C8=O)c5ccccc5N[C@@H]4N2C(=O)[C@]1(CO)SS3 | OCI-Ly1 |  |  | 1 µM, 120 h |  | viability | 0.477% |
| Cn1nccc1Nc1nccc(-c2ccn([C@H](CO)c3ccc(Cl)c(F)c3)c(=O)c2)n1 | HCT116 | IncuCyte |  | concentration not given, 20 (unit not given) |  | PI-positive cells | 3.67 count and 5.33 count and 4.58 count |
| Oc1ccc(C2(c3ccc(O)cc3)c3ccccc3-c3ccccc32)cc1 | HepG2 spheroids | cell proliferation, flow cytometry, item: Ki67 |  | 10 µM, 24 h | reference: solvent control | inhibition | 12.1% |
| Nc1ncc(-c2nc(N3CCOCC3)nc(N3CCOCC3)n2)c(C(F)F)n1 | AN3-CA | cell growth |  | 72 h |  | GI50 | 0.042 µM |
